Results from different studies.
Protocols differ between the studies behind these lines. Numbers after ± are the reported error.
CASP3: Caspase-3 (CASP3, Homo sapiens, UniProt P42574)
UniProt P42574, sequence (whole entry, looked up): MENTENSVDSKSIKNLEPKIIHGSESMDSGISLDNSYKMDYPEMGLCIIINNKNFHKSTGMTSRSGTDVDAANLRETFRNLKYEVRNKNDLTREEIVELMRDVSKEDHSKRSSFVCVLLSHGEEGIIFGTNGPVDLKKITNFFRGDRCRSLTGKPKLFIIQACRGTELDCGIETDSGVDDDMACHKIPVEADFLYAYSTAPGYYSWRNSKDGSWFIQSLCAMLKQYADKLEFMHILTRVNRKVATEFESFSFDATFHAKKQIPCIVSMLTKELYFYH
CHRM5: Muscarinic acetylcholine receptor M5 (CHRM5, Homo sapiens, UniProt P08912)
UniProt P08912, sequence (whole entry, looked up): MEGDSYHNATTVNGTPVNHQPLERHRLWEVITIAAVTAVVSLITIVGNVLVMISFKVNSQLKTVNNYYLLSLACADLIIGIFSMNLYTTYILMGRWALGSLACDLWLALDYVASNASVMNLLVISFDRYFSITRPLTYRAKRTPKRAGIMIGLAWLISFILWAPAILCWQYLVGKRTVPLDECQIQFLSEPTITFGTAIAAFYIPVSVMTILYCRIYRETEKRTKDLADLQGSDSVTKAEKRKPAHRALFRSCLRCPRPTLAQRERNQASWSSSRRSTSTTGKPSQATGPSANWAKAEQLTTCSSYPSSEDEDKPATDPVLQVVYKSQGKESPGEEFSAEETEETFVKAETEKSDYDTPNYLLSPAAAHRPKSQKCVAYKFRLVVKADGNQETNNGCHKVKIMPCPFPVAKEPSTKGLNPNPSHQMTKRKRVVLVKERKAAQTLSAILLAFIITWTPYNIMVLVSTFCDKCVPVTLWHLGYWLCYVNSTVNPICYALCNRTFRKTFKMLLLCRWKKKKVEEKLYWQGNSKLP
UniProt P20309, sequence (whole entry, looked up): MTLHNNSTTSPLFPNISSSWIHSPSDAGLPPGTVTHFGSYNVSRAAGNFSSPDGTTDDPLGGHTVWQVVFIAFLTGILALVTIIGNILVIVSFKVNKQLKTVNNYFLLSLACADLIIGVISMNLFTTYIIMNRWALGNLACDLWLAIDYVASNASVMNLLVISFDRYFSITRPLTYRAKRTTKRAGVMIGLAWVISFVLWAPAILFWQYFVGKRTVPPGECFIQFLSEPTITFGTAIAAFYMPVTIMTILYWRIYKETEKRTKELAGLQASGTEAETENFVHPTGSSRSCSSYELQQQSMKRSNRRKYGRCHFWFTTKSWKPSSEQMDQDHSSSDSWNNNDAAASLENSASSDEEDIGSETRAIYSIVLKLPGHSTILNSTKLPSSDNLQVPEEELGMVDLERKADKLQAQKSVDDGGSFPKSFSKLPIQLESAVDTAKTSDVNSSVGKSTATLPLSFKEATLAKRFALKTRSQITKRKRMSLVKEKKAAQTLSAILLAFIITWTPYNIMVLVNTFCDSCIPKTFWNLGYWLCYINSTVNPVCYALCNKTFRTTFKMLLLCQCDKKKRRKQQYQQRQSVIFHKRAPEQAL
UniProt Q9R0C9, sequence (whole entry, looked up): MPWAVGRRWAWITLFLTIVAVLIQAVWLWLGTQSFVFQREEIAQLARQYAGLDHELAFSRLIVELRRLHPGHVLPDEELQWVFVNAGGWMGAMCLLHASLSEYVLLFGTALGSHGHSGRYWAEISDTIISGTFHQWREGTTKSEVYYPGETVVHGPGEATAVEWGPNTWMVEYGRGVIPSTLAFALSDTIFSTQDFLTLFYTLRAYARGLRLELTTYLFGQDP
UniProt Q01726, sequence (whole entry, looked up): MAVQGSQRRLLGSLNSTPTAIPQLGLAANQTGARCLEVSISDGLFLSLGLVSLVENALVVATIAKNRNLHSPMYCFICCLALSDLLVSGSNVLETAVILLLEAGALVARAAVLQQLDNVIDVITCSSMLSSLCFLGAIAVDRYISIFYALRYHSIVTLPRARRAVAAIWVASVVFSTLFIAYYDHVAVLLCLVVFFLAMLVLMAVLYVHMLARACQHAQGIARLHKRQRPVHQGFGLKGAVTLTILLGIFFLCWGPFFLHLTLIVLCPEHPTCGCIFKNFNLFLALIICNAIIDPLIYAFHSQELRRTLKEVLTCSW
UniProt P61169, sequence (whole entry, looked up): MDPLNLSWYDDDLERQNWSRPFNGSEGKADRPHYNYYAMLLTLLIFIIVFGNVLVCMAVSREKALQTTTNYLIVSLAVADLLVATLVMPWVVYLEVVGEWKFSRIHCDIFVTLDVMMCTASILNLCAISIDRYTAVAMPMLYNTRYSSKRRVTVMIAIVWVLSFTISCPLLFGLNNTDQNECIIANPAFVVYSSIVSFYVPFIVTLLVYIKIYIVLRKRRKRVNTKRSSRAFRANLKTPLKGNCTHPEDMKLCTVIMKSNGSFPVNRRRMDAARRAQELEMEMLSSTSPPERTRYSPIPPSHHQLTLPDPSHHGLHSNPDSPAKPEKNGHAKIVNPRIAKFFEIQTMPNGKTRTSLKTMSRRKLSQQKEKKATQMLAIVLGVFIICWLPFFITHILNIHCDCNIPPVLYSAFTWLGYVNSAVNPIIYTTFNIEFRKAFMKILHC
UniProt Q12908, sequence (whole entry, looked up): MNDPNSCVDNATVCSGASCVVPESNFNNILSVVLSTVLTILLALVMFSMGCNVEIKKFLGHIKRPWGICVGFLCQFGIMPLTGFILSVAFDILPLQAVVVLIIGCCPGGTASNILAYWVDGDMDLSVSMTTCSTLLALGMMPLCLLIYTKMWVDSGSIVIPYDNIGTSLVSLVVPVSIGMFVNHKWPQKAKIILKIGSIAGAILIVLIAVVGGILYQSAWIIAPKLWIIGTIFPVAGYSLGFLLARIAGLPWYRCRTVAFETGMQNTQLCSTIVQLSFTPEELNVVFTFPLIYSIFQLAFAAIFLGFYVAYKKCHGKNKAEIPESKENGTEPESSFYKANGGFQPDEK
UniProt P22748, sequence (whole entry, looked up): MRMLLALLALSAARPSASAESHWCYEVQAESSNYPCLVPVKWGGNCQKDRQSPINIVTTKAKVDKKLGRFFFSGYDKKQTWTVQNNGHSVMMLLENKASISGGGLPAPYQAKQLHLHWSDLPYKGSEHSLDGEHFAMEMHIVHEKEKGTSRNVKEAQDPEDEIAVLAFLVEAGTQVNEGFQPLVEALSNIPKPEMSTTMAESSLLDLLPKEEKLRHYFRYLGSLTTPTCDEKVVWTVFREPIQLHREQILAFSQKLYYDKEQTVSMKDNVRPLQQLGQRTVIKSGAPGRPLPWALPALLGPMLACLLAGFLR
UniProt P16442, sequence (whole entry, unmodified, looked up): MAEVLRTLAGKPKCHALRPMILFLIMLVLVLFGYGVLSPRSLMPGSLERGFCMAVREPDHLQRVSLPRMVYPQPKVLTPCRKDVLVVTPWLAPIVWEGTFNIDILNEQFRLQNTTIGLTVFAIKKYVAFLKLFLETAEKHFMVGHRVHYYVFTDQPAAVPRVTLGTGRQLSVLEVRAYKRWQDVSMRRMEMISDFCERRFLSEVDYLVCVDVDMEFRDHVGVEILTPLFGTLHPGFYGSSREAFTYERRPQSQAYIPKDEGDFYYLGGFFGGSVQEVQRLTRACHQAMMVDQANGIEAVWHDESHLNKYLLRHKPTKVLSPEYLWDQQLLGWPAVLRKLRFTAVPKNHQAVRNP
UniProt P11229, sequence (whole entry, looked up): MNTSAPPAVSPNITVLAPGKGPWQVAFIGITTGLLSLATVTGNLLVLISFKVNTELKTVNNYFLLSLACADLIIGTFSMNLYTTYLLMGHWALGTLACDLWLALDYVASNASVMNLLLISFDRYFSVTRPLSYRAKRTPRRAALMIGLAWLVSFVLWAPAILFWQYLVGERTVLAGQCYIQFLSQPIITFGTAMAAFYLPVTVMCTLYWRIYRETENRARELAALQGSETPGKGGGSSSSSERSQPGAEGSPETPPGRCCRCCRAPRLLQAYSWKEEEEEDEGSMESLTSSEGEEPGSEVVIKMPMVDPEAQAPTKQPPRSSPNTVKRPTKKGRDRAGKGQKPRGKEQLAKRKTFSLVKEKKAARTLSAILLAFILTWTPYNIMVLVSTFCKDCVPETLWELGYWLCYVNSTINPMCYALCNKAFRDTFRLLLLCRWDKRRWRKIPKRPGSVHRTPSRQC
UniProt P30542, sequence (whole entry, looked up): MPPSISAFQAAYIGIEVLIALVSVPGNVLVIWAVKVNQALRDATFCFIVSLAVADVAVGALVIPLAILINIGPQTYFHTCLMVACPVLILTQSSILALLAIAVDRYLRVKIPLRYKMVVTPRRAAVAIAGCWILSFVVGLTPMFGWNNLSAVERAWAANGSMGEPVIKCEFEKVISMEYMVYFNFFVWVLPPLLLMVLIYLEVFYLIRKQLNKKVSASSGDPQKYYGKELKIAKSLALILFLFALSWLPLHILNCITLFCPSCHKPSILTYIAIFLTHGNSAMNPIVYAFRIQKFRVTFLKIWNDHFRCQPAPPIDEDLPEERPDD
UniProt Q9H227, sequence (whole entry, looked up): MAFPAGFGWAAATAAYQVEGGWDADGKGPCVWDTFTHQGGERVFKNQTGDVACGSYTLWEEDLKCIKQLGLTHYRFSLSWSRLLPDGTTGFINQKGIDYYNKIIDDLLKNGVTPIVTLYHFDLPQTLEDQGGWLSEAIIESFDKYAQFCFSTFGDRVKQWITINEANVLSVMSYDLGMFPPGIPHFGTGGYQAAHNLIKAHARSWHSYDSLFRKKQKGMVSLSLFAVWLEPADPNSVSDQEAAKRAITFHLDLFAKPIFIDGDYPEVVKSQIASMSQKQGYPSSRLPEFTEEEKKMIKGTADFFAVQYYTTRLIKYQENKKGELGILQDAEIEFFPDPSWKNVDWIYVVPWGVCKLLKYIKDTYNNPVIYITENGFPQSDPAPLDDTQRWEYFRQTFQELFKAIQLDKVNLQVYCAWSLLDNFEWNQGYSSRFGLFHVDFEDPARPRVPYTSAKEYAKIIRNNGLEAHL

CCC(=O)NC1CN(CCCCC2CCN(CC(=O)N3c4ccccc4NC(=O)c4ccccc43)CC2)CCN(CCCOc2nsnc2C2=CCCN(C)C2)C1 (stereo not drawn)
Ki (CHRM1 (Homo sapiens, UniProt P11229); ligand displacement, radioligand): 0.00407 µM

CC(=O)N[C@@H](CC(=O)O)C(=O)N[C@H](C(=O)N[C@@H](CCN)C(=O)N[C@H](C=O)CC(=O)O)C(C)C
Ki (CASP3; enzyme activity, inhibitor, fluorescence; pH 7): 3.31 µM

CC[C@H](C)[C@H](NC(=O)CN)C(=O)N[C@H](C(=O)N[C@@H](CC(N)=O)C(=O)N[C@H](C(=O)N[C@@H](CC(C)C)C(=O)N[C@@H](CCC(N)=O)C(=O)N[C@@H](CCC(N)=O)C(=O)N[C@@H](Cc1ccc(O)cc1)C(=O)N[C@@H](Cc1ccc(O)cc1)C(=O)N[C@@H](CO)C(=O)N[C@@H](CCC(N)=O)C(=O)N[C@H](C(=O)N[C@@H](CCCNC(=N)N)C(=O)NCC(=O)NCC(=O)N[C@@H](CCCNC(=N)N)C(=O)N[C@@H](CO)C(=O)N[C@@H](C)C(=O)N[C@H](C(=O)N[C@@H](CC(C)C)C(=O)N[C@@H](CO)C(=O)N[C@@H](CO)C(=O)N[C@@H](CC(C)C)C(=O)N1CCC[C@H]1C(=O)N[C@@H](CCCCN)C(=O)N[C@@H](CCC(=O)O)C(=O)N[C@@H](CCC(=O)O)C(=O)N[C@@H](CCC(N)=O)C(=O)N[C@H](C(=O)NCC(=O)N[C@@H](CCC(N)=O)C(=O)N[C@@H](CO)C(=O)N[C@@H](CO)C(=O)N[C@H](C(=O)N[C@@H](CCC(N)=O)C(=O)NCC(=O)N[C@@H](CCC(N)=O)C(=O)N[C@@H](CCC(N)=O)C(=O)N[C@@H](CO)C(=O)N[C@@H](CO)C(=O)N[C@@H](CCCNC(=N)N)C(=O)N[C@@H](CCCNC(=N)N)C(=O)N[C@@H](CCCCN)C(=O)N[C@@H](CCCCN)C(N)=O)[C@@H](C)O)[C@@H](C)CC)C(C)C)C(C)C)[C@@H](C)O)[C@@H](C)CC
Ki (MC1R (Homo sapiens, UniProt Q01726); HEK-293T transfected; 2 h, 37 °C, with: Eu-NDP-MSH): > 5 µM

CCCCCCOc1ccc(C(=O)OCCN2CC=CCC2)cc1
Ki (CHRM5; ligand displacement, radioligand; cell membranes): 6.61 µM

NCc1cc(C(=O)NCCN2CCN(CCCCC3CCN(CCCN4C(=O)CCc5ccccc54)CC3)CC2)cc(C(=O)NCCN2CCN(CCCCC3CCN(CC(=O)N4c5ccccc5NC(=O)c5ccccc54)CC3)CC2)c1
Ki (CHRM5; ligand displacement, radioligand): 0.0204 µM

COc1cc(CN2CCOCC2)ccc1OCCCN1CCN(c2cccc3sccc23)CC1
Ki (Drd2 (Rattus norvegicus, UniProt P61169); cell-free assay, radioligand): 0.073 µM

CC(=O)N[C@@H](CCCNC(=N)N)C(=O)N[C@H](C(=O)N[C@H](C=O)CC(=O)O)[C@@H](C)O
Ki (CASP3; enzyme activity, inhibitor, fluorescence; pH 7): 11 µM

C[C@H](CCC(=O)N[C@@H](CCC(=O)Nc1cncc(F)c1)C(=O)O)[C@H]1CC[C@H]2[C@@H]3[C@H](O)C[C@@H]4C[C@H](O)CC[C@]4(C)[C@H]3CC[C@]12C
Ki (SLC10A2 (Homo sapiens, UniProt Q12908); taurocholate uptake, inhibitor; ASBT-MDCK; 10 min, with: taurocholate 2.5 µM): 6.84 µM

O=c1[nH]c(O)nc2c([C@@H]3N[C@H](COP(=O)(O)O)[C@@H](O)[C@H]3O)c[nH]c12
Ki (Hypoxanthine-guanine phosphoribosyltransferase (Trypanosoma cruzi, UniProt Q4DGA3)): 36.7 ± 0.67 µM

CN1CCC=C(c2nsnc2OCCCCCNC(=O)CCCNC(=O)c2cc(CN)cc(C(=O)NCCN3CCN(CCCCC4CCN(CC(=O)N5c6ccccc6NC(=O)c6ccccc65)CC4)CC3)c2)C1
Ki (CHRM3 (Homo sapiens, UniProt P20309); ligand displacement, radioligand): 0.0174 µM

O=Cc1ccc(-c2cn([C@@H]3O[C@H](COP(=O)(O)OP(=O)(O)O[C@H]4O[C@H](CO)[C@H](O)[C@H](O)[C@H]4O)[C@@H](O)[C@H]3O)c(=O)[nH]c2=O)s1
Ki (ABO (Homo sapiens, UniProt P16442, G235S/G268A/L266M/R176G); enzyme activity, inhibitor): 2.4 µM

CN(CCON=Cc1ccc(C(F)(F)F)cc1)Cc1ccccc1
Ki (Sigmar1 (Rattus norvegicus, UniProt Q9R0C9); binding): 0.0274 ± 0.00086 µM

NS(=O)(=O)c1ccc(Nc2nc3nccc(-c4ccc5ccccc5c4)n3n2)cc1
Ki (CA4 (Homo sapiens, UniProt P22748); enzyme activity, inhibitor, stopped-flow): 8.2 µM

CC(OCCCCCN1C[C@H](O)[C@@H](O)[C@H](O)[C@H]1CO)C(C)(C)C (stereo partly drawn)
Ki (GBA3 (Homo sapiens, UniProt Q9H227); enzyme activity, inhibitor): 116 µM

Nc1ncnc2c1ncn2[C@@H]1O[C@H](C(=O)NCCF)[C@@H](O)[C@H]1O
Ki (ADORA1 (Homo sapiens, UniProt P30542); ligand displacement, radioligand; cell membranes): 0.0034 µM
